Published values collected from several papers.
Every numbered part comes from another study and shows a few of its results, in no order. Substitutions count along the parent as printed.
Chain of UniProt P05771 (whole entry, looked up): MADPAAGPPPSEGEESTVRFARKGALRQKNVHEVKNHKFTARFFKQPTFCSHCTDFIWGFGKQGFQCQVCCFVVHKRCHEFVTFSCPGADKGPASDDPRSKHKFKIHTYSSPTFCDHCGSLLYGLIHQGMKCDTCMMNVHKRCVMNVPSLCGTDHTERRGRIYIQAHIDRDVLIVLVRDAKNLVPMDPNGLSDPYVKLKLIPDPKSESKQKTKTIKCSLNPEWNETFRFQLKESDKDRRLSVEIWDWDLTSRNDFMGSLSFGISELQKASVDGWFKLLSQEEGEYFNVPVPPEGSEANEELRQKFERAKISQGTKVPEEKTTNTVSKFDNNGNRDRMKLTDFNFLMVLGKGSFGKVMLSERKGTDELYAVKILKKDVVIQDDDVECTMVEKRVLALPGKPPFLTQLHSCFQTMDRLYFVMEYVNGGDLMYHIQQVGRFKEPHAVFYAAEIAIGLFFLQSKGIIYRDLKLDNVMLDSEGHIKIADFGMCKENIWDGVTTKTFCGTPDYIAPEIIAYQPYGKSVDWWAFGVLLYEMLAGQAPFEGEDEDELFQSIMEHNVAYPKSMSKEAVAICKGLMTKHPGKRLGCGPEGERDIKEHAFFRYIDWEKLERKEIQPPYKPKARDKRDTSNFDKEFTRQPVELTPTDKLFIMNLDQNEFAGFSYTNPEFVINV
Chain of UniProt P11802 (whole entry, looked up): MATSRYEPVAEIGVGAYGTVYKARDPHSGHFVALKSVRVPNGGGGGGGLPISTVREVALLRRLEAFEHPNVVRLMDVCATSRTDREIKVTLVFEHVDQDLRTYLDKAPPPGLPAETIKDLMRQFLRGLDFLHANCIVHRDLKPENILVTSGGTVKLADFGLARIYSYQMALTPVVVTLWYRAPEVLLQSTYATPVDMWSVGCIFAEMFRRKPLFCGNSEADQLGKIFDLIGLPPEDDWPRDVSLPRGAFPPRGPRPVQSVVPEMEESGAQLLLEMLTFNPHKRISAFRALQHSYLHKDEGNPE
Chain of UniProt O95747 (whole entry, looked up): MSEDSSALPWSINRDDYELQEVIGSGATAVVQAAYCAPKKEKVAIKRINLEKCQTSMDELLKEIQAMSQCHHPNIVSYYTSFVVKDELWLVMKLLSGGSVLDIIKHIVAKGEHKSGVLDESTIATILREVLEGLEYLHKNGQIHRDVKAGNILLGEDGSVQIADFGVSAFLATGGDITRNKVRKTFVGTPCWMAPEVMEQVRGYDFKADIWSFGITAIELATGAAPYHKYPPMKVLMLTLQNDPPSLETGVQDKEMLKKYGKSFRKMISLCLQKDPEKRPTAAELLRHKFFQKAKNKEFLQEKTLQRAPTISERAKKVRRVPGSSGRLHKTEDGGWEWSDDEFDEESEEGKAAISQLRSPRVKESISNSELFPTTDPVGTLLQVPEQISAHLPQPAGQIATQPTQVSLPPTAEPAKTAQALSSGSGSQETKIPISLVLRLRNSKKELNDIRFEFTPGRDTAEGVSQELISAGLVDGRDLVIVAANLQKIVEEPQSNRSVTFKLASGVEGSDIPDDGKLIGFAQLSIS
Chain of UniProt Q15831 (whole entry, looked up): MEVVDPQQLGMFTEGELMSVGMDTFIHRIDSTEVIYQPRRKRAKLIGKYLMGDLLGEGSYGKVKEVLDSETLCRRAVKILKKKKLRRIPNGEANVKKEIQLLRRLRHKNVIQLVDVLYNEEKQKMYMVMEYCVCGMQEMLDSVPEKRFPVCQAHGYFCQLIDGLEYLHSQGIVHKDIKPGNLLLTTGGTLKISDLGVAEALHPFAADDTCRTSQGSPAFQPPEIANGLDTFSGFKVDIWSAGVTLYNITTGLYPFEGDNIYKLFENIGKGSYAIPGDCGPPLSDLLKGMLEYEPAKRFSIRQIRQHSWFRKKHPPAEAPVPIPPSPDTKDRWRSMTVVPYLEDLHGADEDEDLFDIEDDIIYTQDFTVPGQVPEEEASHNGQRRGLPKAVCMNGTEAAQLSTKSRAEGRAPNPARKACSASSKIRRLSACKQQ
Chain of UniProt O14920 (whole entry, looked up): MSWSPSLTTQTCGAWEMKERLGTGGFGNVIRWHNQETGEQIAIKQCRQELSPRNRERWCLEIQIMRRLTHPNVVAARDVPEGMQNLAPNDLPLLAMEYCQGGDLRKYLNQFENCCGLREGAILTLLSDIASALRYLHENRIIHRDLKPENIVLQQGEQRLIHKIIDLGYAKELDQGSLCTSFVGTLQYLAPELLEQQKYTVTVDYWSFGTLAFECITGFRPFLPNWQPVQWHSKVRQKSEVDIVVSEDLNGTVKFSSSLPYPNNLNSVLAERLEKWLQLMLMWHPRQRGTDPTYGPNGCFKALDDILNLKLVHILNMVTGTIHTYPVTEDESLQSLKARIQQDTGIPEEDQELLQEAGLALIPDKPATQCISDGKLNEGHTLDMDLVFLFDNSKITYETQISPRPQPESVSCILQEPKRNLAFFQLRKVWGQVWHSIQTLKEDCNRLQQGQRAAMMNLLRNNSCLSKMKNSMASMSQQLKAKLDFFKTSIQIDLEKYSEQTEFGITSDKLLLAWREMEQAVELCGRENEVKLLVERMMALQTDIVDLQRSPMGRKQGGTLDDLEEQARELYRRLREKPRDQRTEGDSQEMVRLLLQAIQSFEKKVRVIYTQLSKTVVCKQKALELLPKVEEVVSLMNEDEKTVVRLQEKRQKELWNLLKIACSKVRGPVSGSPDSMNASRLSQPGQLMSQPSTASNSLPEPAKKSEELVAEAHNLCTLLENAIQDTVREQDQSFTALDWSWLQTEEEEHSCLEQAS
Chain of UniProt Q00535 (whole entry, looked up): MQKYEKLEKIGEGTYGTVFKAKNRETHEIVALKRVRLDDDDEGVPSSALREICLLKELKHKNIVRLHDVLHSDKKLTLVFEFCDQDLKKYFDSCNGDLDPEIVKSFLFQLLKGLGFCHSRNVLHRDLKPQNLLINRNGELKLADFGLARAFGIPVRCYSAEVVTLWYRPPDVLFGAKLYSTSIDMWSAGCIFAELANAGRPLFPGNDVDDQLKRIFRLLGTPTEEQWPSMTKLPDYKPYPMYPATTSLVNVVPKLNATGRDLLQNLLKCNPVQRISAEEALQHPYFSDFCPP
Chain of UniProt Q96RR4 (whole entry, looked up): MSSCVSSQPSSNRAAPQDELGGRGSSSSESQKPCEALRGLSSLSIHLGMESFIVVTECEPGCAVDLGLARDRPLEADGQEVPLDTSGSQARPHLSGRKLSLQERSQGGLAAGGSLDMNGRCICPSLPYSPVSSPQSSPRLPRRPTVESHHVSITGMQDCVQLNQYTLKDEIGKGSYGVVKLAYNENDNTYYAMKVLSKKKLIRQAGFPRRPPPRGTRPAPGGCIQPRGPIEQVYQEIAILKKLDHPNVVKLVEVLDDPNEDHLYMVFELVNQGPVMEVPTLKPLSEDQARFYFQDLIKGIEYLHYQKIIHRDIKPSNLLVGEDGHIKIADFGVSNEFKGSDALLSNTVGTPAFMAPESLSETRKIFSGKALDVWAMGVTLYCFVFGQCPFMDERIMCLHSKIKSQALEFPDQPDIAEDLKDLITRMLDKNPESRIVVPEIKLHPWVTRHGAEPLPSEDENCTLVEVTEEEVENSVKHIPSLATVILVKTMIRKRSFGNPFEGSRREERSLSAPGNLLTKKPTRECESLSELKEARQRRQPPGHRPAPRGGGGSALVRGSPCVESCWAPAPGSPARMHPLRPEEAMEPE

Series 1 — observed: radioligand binding; method: radioligand displacement; tested at: 10 µM; endpoint: inhibition
Target: Translocator protein (Tspo, Rattus norvegicus, UniProt P16257)
Chain of UniProt P16257 (whole entry, looked up): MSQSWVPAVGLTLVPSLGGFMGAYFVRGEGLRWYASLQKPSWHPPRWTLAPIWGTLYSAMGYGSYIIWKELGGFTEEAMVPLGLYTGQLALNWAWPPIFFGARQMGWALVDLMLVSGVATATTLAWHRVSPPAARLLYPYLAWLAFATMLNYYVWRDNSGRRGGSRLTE
CNCc1ccccc1-c1csc([C@H](C)Nc2nc(C)nc3cc(OC)c(OC)cc23)c1: -11.4%
CCS(=O)(=O)c1cc2cc(C[C@](O)(CC(C)(C)c3ccc(F)cc3C(N)=O)C(F)(F)F)[nH]c2cn1: -21.4%
c1ccc2oc(-c3csc(C4CCN(Cc5nc6ncccc6[nH]5)CC4)n3)cc2c1: 20.2%
CNC(=N)NCCC[C@H](NC(=O)[C@H](CC(C)C)NC(=O)NNC(=O)[C@H](Cc1ccccc1)NC(=O)[C@H](CO)NC(=O)[C@H](CC(N)=O)NC(=O)[C@@H](Cc1cccnc1)NC(=O)[C@H](N)Cc1ccc(O)cc1)C(=O)NCC(N)=O: 15.6%

Series 2 — observed: enzyme activity; mode: inhibitor; tested at: 0.5 µM; relative to: control; endpoint: remaining activity
SMILES: CN(C)S(=O)(=O)c1ccc2c(c1)/C(=C/c1cc3c([nH]1)CCCC3)C(=O)N2
CAMKK2 (Homo sapiens, UniProt Q96RR4): 27.3%
PRKCA (Homo sapiens, UniProt P17252): 94.9%
GRK3 (Homo sapiens, UniProt P35626): 97%
Protein kinase C beta type, isoform beta-I (PRKCB, Homo sapiens, UniProt P05771): 106%
STK10 (Homo sapiens, UniProt O94804): 9.53%
TGFBR1 (Homo sapiens, UniProt P36897): 95.9%
DAPK2 (Homo sapiens, UniProt Q9UIK4): 93.5%
Cyclin-dependent kinase 4, with cyclin D1 (CDK4, Homo sapiens, UniProt P11802): 107%
STK39 (Homo sapiens, UniProt Q9UEW8): 99.5%
IKBKE (Homo sapiens, UniProt Q14164): 87.9%
PRKACA (Homo sapiens, UniProt P17612): 106%
IKBKB (Homo sapiens, UniProt O14920): 107%
cGMP-dependent protein kinase 1, isoform beta (PRKG1, Homo sapiens, UniProt Q13976): 88.6%
NEK2 (Homo sapiens, UniProt P51955): 98%
MAPK9 (Homo sapiens, UniProt P45984): 104%
DAPK1 (Homo sapiens, UniProt P53355): 102%
STK11 (Homo sapiens, UniProt Q15831): 90.4%
Cyclin-dependent kinase 5, with p25 (CDK5, Homo sapiens, UniProt Q00535): 72.9%
CHEK2 (Homo sapiens, UniProt O96017): 46.1%
MAP3K3 (Homo sapiens, UniProt Q99759): 48.7%
OXSR1 (Homo sapiens, UniProt O95747): 89.1%
Tyrosine-protein kinase Lyn, isoform B (LYN, Homo sapiens, UniProt P07948): 41.3%
CAMK2D (Homo sapiens, UniProt Q13557): 73.2%
TGFBR2 (Homo sapiens, UniProt P37173): 129%

Series 3 — method: universal PBM; form: double-stranded DNA, one strand shown; matrix: in vitro; tested at: 600 nM; direction: higher = stronger binding; endpoint: E-score
Target: Sal-like protein 4, full length isoform A (SALL4, Homo sapiens, UniProt Q9UJQ4, residues 1-1053)
Chain of UniProt Q9UJQ4 (whole entry, looked up): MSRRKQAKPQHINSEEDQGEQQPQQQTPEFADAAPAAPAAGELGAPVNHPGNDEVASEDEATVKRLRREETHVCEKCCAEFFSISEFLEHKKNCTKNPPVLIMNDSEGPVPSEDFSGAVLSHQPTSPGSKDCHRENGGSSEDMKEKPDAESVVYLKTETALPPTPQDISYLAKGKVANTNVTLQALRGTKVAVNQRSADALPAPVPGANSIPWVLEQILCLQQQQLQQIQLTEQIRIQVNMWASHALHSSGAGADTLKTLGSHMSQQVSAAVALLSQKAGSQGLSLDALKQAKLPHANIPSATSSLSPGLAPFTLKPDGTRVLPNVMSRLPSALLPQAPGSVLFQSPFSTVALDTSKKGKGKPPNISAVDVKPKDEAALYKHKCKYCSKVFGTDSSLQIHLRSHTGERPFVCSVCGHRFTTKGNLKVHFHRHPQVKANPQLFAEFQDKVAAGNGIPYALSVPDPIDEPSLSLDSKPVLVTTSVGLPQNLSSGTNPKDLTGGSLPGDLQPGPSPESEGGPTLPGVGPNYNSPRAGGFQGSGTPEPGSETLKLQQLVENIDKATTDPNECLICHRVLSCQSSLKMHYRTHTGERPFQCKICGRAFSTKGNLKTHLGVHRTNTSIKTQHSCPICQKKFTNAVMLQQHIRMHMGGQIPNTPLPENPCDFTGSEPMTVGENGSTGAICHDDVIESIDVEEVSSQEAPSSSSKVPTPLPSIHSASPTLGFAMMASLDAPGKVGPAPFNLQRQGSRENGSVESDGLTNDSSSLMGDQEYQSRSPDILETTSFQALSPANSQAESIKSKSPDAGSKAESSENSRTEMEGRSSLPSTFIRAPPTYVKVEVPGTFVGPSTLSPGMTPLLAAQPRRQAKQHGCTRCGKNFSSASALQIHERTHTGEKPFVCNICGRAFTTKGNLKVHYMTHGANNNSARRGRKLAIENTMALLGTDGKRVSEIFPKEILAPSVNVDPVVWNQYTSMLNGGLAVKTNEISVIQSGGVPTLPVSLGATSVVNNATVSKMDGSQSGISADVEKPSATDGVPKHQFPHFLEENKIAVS
Setting: 8-mer, flanks averaged, mean of replicates
GCAGCGCA: -0.268
CAACTCGA: -0.125
CTGCGAAA: 0.0129
TCCTACGA: -0.181
ATAGTTCG: 0.118
ATCTAGGG: 0.145
ATAGGTTC: 0.187
ACCGCAAC: -0.0455

Series 4 — method: protein-binding microarray; form: hairpin DNA; matrix: in vitro; tested at: not given; relative to: not given; direction: higher = stronger binding; endpoint: median fluorescence
Target: Cellular tumor antigen p53, full length (TP53, Homo sapiens, UniProt P04637, residues 1-393)
Setting: whole hairpin DNA, median over replicate spots
CGGACTTGCCCGGGCATGTCTCCTGACATGCCCGGGCAAGTCCGACACTC: 15900 a.u.
CGGATATGCCCGGGCATGTCTCCTGACATGCCCGGGCATATCCGACACTC: 15300 a.u.
CGGACATGCCCGAGCATGTCTCCTGACATGCTCGGGCATGTCCGACACTC: 16000 a.u.
CCACACCGGGTGGCATGCCTTCCTAGGCATGCCACCCGGTGTGGACACTC (5mC at 7 37): 6600 a.u.
CCACACGTGGTGCCATGCCTTCCTAGGCATGGCACCACGTGTGGACACTC (5mC at 13): 4440 a.u.
CGGACATCGCCGGGCATGTCTCCTGACATGCCCGGCGATGTCCGACACTC (5mC at 8): 12000 a.u.
CGGACACGCCCGGGCATGTCTCCTGACATGCCCGGGCGTGTCCGACACTC (5mC at 37): 13900 a.u.
CCACACGTGGTGGCTTGCCTTCCTAGGCAAGCCACCACGTGTGGACACTC: 5060 a.u.

Series 5 — target: CREB3, bZIP domain (human); method: DHFR protein complementation; matrix: yeast; relative to: wild-type JUN-FOS pair; direction: higher = stronger binding; endpoint: binding fitness
Setting: single substitutions, most at no-binding floor
Starting sequence: JUN, bZIP domain (human); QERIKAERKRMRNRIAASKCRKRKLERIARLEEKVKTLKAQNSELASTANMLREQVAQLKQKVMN; partner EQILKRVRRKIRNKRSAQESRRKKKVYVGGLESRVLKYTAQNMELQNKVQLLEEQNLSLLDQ
E54A: -1.41 natural log
K39N: -1.46 natural log
A29H: -1.48 natural log
L52M: -1.48 natural log
K39H: -1.48 natural log
S43P: -1.51 natural log
L38H: -1.49 natural log
R30I: -1.46 natural log
